{"data": "Published values from different studies", "note": "A part holds a random share of what one study measured."}
{"data": "Study 1", "target": "PABPC1L2, full length, GST fusion (mouse, UniProt A0ABA7IW68)", "technique": "RNAcompete", "molecule type": "RNA", "medium": "in vitro", "concentration": "20 nM", "setting": "7-mer, probes averaged, single round", "relative to": "mean of 7-mers", "direction": "higher = stronger binding"}
{"Oligonucleotide": "AACUCAG", "7-mer Z-score": -0.012}
{"Oligonucleotide": "AAAGGAA", "7-mer Z-score": 1.09}
{"Oligonucleotide": "AGAAUUA", "7-mer Z-score": -0.132}
{"Oligonucleotide": "CUCGGCA", "7-mer Z-score": -0.0699}
{"Oligonucleotide": "AUAAUAU", "7-mer Z-score": 0.0334}
{"Oligonucleotide": "GCCUCUU", "7-mer Z-score": -0.445}
{"Oligonucleotide": "UUAAGAC", "7-mer Z-score": -0.00652}
{"Oligonucleotide": "UCAUUGU", "7-mer Z-score": -0.396}
{"Oligonucleotide": "GUUGGGC", "7-mer Z-score": -0.108}
{"Oligonucleotide": "CCGUGCG", "7-mer Z-score": -0.331}
{"Oligonucleotide": "CCGAACG", "7-mer Z-score": -0.168}
{"Oligonucleotide": "GGUUGUA", "7-mer Z-score": -0.304}
{"Oligonucleotide": "ACGUGCA", "7-mer Z-score": -0.0917}
{"data": "Study 2", "target": "Histone acetyltransferase KAT6A, winged helix 1, GST fusion (KAT6A, Homo sapiens, UniProt Q92794, residues 1-85)", "technique": "protein binding microarray", "molecule type": "double-stranded DNA, one strand shown", "medium": "in vitro", "concentration": "not given", "setting": "8-mer, flanks averaged, mean of 2 arrays, mostly near background", "relative to": "not given", "direction": "higher = stronger binding", "Construct (chain)": "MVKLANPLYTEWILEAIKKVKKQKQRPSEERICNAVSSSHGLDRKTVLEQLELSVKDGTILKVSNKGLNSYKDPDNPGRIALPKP"}
{"Oligonucleotide": "AGAATCAC", "E-score": 0.0354}
{"Oligonucleotide": "TACAAAAA", "E-score": -0.000625}
{"Oligonucleotide": "GTCCTACA", "E-score": -0.00857}
{"Oligonucleotide": "ATCGCGTA", "E-score": 0.136}
{"Oligonucleotide": "CGTCATTC", "E-score": 0.0631}
{"Oligonucleotide": "CACTAGGG", "E-score": -0.0556}
{"Oligonucleotide": "GGGAATAC", "E-score": 0.063}
{"Oligonucleotide": "GCGTAAAA", "E-score": 0.101}
{"Oligonucleotide": "CCAAGGAC", "E-score": -0.057}
{"Oligonucleotide": "AGAGACAA", "E-score": -0.258}
{"Oligonucleotide": "GGAGTCAA", "E-score": -0.165}
{"Oligonucleotide": "AACGCCGC", "E-score": 0.355}
{"Oligonucleotide": "ATTATAGG", "E-score": -0.178}
{"Oligonucleotide": "CGGAGTCC", "E-score": 0.0365}
{"Oligonucleotide": "GATTGCTA", "E-score": -0.157}
{"data": "Study 3", "target": "Phosphate system positive regulatory protein PHO4, full length, GST-tagged (PHO4, Saccharomyces cerevisiae, UniProt P07270, residues 1-312)", "technique": "competition protein-binding microarray", "molecule type": "double-stranded DNA, one strand shown", "medium": "in vitro", "concentration": "2 µM", "setting": "whole 60-bp probe, lowest competitor level", "with": "Cbf1 competitor, 0.05 µM", "direction": "higher = stronger binding", "Construct (chain)": "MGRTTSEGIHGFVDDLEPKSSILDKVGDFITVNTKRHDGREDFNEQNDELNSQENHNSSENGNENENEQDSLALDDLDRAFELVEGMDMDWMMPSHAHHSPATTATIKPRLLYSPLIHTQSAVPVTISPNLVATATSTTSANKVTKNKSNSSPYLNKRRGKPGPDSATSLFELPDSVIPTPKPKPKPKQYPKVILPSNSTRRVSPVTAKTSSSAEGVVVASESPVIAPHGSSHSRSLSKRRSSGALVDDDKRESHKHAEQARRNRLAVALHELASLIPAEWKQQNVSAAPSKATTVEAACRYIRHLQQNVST"}
{"Oligonucleotide": "CGTCCTAGTGATTTGCACGTGTTTTCCATGAGGAAGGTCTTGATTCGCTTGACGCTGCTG", "fluorescence intensity [a.u.]": 16900}
{"Oligonucleotide": "AATTATTTAAGCTCACACAGGCAGAAATCAAGGGATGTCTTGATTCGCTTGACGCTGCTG", "fluorescence intensity [a.u.]": 4190}
{"Oligonucleotide": "ATCAGAAGACCGCGAAACGTGCCGATGCAACCTTTTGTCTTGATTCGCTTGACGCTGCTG", "fluorescence intensity [a.u.]": 13400}
{"Oligonucleotide": "CTTGGGGTCTAGAAGCTCGTGTTCCATTCTTAGACAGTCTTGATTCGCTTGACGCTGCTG", "fluorescence intensity [a.u.]": 9140}
{"Oligonucleotide": "AACCCCCAAAGTTGTCATGTTAAGGAGGGCATTTTTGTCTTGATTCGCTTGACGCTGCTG", "fluorescence intensity [a.u.]": 3470}
{"Oligonucleotide": "CTGATTTGCCTGTACCACATGTCATAAAAACTGCGGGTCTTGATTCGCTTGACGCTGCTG", "fluorescence intensity [a.u.]": 10300}
{"Oligonucleotide": "AAAGCGGTAATTTCGCACGTGTTTTCACATATCTATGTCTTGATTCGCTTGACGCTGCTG", "fluorescence intensity [a.u.]": 18900}
{"Oligonucleotide": "GGATGTTTTCCAGATGTCGTGATGGTTTCACGAAGCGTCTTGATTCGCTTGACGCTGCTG", "fluorescence intensity [a.u.]": 5140}
{"Oligonucleotide": "AAAGCGGTAATTTGAAATGTGGGTGCAGATATCTATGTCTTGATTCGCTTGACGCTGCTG", "fluorescence intensity [a.u.]": 5640}
{"Oligonucleotide": "AAATTACTAAGTTGTCACCTGACTTACCCCGTATGAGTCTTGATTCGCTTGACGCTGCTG", "fluorescence intensity [a.u.]": 3590}
{"Oligonucleotide": "TGCGCAACAACTTGTCACGTTACTTTATGTCTAGAAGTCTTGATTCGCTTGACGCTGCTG", "fluorescence intensity [a.u.]": 8680}
{"Oligonucleotide": "GTACTGCATCTTATTCCCGTGCCAGGGTCTCTGGGTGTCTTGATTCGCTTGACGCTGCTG", "fluorescence intensity [a.u.]": 9610}
{"Oligonucleotide": "GCCAAGCCCCTTCATCATGTGCCACTCCACATAACAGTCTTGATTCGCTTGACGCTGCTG", "fluorescence intensity [a.u.]": 8360}
{"Oligonucleotide": "GCTAGTAGCTCTACCCACGGGACTACTCACAGTTCTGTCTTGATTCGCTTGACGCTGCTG", "fluorescence intensity [a.u.]": 7300}
{"Oligonucleotide": "ACAAGAACACCATCCCAGGTGATAGGAGTGCTCTTTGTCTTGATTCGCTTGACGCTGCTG", "fluorescence intensity [a.u.]": 4710}
{"Oligonucleotide": "GCTTGCTGTCAGCGTCACAGTTAAAGTTCATATACAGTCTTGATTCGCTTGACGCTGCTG", "fluorescence intensity [a.u.]": 2940}
{"Oligonucleotide": "GTTCAATATACATCCTACGTGCAAAACGAACAATAGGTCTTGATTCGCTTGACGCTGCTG", "fluorescence intensity [a.u.]": 7060}
{"Oligonucleotide": "TGCGCAACAACTTTTCACGTGCTCTTATGTCTAGAAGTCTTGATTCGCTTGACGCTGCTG", "fluorescence intensity [a.u.]": 18000}
{"Oligonucleotide": "CGTCCTAGTGATTGGAGGGTGGGTGCCATGAGGAAGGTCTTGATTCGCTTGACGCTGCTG", "fluorescence intensity [a.u.]": 7460}
{"Oligonucleotide": "CATACCCAACCTTGTCACGCAACTTAAGATATTTGTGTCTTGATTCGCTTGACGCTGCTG", "fluorescence intensity [a.u.]": 5960}
{"Oligonucleotide": "GATCCGTATGCTCATCTCGTGATGGAGAAGTAACGCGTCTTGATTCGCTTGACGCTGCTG", "fluorescence intensity [a.u.]": 6740}
{"Oligonucleotide": "TCCTCCCAGACGGGAAACGTGTCGGTCGCTTCTGTTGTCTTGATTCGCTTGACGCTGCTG", "fluorescence intensity [a.u.]": 11800}
{"data": "Study 4", "target": "Sal-like protein 4, full length isoform B (SALL4, Homo sapiens, UniProt Q9UJQ4-2, residues 1-616)", "technique": "universal PBM", "molecule type": "double-stranded DNA, one strand shown", "medium": "in vitro", "concentration": "not given", "setting": "8-mer, flanks averaged, mean of replicates", "direction": "higher = stronger binding"}
{"Oligonucleotide": "TATCCCAA", "E-score": 0.0669}
{"Oligonucleotide": "GCTTACCA", "E-score": 0.0233}
{"Oligonucleotide": "ACGGCAAG", "E-score": -0.115}
{"Oligonucleotide": "TCCCGAAA", "E-score": 0.118}
{"Oligonucleotide": "TACCTTAA", "E-score": 0.103}
{"Oligonucleotide": "GATTCTAA", "E-score": 0.143}
{"Oligonucleotide": "GTGCTTGA", "E-score": -0.0244}
{"Oligonucleotide": "CTGGAGTA", "E-score": -0.025}
{"Oligonucleotide": "CTCGTAAC", "E-score": 0.0345}
{"Oligonucleotide": "CCGCAAGA", "E-score": -0.101}
{"Oligonucleotide": "GTTGACGA", "E-score": -0.0948}
{"Oligonucleotide": "ATGATCGC", "E-score": 0.0703}
{"Oligonucleotide": "GGAATACC", "E-score": -0.118}
{"Oligonucleotide": "GGCAGGCC", "E-score": -0.364}
{"Oligonucleotide": "ATTCATTA", "E-score": 0.361}
{"Oligonucleotide": "AGATTTGG", "E-score": 0.0257}
{"Oligonucleotide": "CGAGTAGA", "E-score": -0.138}
{"Oligonucleotide": "AATATTTG", "E-score": 0.443}
{"Oligonucleotide": "AGTTCGAT", "E-score": 0.171}
{"Oligonucleotide": "CCCGACTC", "E-score": -0.234}
{"Oligonucleotide": "CGTCAAAC", "E-score": 0.0139}
{"Oligonucleotide": "CAGGTAGA", "E-score": -0.0859}
